Experimental data collected from several papers.
Parts stem from different laboratories: compare values within a part only.

Set 1 — target: UBE2I UBC core domain (UniProt P63279); technique: yeast two-hybrid; matrix: yeast; setting: mostly zero background; reference: not given; direction: higher = stronger interaction; quantity: lacZ reporter activity
B1: RNF111 RING domain (UniProt Q6ZNA4); chain EGTEEDTEEKCTICLSILEEGEDVRRLPCMHLFHQVCVDQWLITNKKCPICRVDIEAQLPSE
B2: MKRN1 RING domain (UniProt Q9UHC7); chain FAVQRSKDMVCGICMEVVYEKANPSERRFGILSNCNHTYCLKCIRKWRSAKQFESKIIKSCPECRITSNFVIPSE
B3: VPS41 RING domain (UniProt P49754); chain KGVLVDEENICESCLSPILPSDAAKPFSVVVFHCRHMFHKECLPMPSMNSAAQFCNICSAKNRGPGSAI
B4: RNF208 RING domain (UniProt Q9H0X6); chain SSAAAGEPLECPTCGHSYNVTQRRPRVLSCLHSVCEQCLQILYESCPKYKFISCPTCRRETVLFTDYG
B5: TRIML1 RING domain (UniProt Q8N9V2); chain LMENLREELTCFICLDYFSSPVTTECGHSFCLVCLLRSWEEHNTPLSCPECWRTLEGPHFQS
B6: TRIM4 RING domain (UniProt Q9C037); chain EAEDIQEELTCPICLDYFQDPVSIECGHNFCRGCLHRNWAPGGGPFPCPECRHPSAPAALRP
B7: TRIM24 RING domain (UniProt O15164); chain EAARLNLLDTCAVCHQNIQSRAPKLLPCLHSFCQRCLPAPQRYLMLPAPMLGSAETPPPVPAPGSPVSGSSPFATQVGVIRCPVCSQECAERHII
B8: RNF38 RING domain (UniProt Q9H0F5); chain PNNHQSEQTLCVVCMCDFESRQLLRVLPCNHEFHAKCVDKWLKANRTCPICRADASEVHRDS
B9: SH3RF2 RING domain (UniProt Q8TEC5); chain DDLTLLDLLECPVCFEKLDVTAKVLPCQHTFCKPCLQRVFKAHKELRCPECRTPVFSNIEAL
Sequence = B1 (RNF111 RING domain); result = 0
Sequence = B2 (MKRN1 RING domain); result = 0
Sequence = B3 (VPS41 RING domain); result = 0
Sequence = DHGAVGQEMCCPICCSEYVKGEVATELPCHHYFHKPCVSIWLQKSGTCPVCRCMFPPPL (PJA1 RING domain (UniProt Q8NG27)); result = 0
Sequence = B4 (RNF208 RING domain); result = 0
Sequence = B5 (TRIML1 RING domain); result = 0
Sequence = FQGDVDEDLICPICSGVLEEPVQAPHCEHAFCNACITQWFSQQQTCPVDRSVVTVAHLRP (RNF41 RING domain (UniProt Q9H4P4)); result = 0
Sequence = MPIRALCTICSDFFDHSRDVAAIHCGHTFHLQCLIQWFETAPSRTCPQCRIQVGKRTIIN (TRAIP RING domain (UniProt Q9BWF2)); result = 0
Sequence = PAELEVQASECVVCLEREAQMIFLNCGHVCCCQQCCQPLRTCPLCRQDIAQRLRIY (LRSAM1 RING domain (UniProt Q6UWE0)); result = 0
Sequence = ASLPTSEEDLCPICYAHPISAVFQPCGHKSCKACINQHLMNNKDCFFCKTTIVSVEDWE (RNF123 RING domain (UniProt Q5XPI4)); result = 0
Sequence = B6 (TRIM4 RING domain); result = 0
Sequence = B7 (TRIM24 RING domain); result = 0
Sequence = B8 (RNF38 RING domain); result = 0
Sequence = QVDKAVFHMQSVKCLKCQEQKRAVLPCQHAALCELCAEGSECPICQPGRAHTLQS (UNK RING domain (UniProt Q9C0B0)); result = 0
Sequence = B9 (SH3RF2 RING domain); result = 0

Set 2 — technique: protein binding microarray; molecule type: double-stranded DNA, one strand shown; matrix: in vitro; concentration: not given; reference: not given; direction: higher = stronger binding; quantity: E-score
Target: Histone acetyltransferase KAT6A, winged helix 2, GST fusion (KAT6A, Homo sapiens, UniProt Q92794, residues 85-181)
Setting: 8-mer, flanks averaged, mean of 2 arrays, mostly near background
Construct (chain): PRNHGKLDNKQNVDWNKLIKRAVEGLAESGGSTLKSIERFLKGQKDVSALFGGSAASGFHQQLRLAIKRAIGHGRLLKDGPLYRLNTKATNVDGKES
Sequence = GGTGGCGA; result = 0.00777
Sequence = CAACCCCA; result = 0.0371
Sequence = GAATATTC; result = 0.118
Sequence = AAACAGAT; result = -0.0869
Sequence = GTAAGAGA; result = -0.132
Sequence = TATCTCGA; result = -0.128
Sequence = ATAACCCG; result = -0.101
Sequence = AAAATGGA; result = 0.075
Sequence = AAATTGTC; result = -0.126
Sequence = ATCCCGAA; result = 0.16
Sequence = GGCCAACC; result = 0.0831
Sequence = GCGCTGCA; result = 0.146
Sequence = CGTCCAAG; result = -0.091
Sequence = GCCCGCGA; result = 0.155
Sequence = AATACTGG; result = -0.114
Sequence = AACGAGAG; result = 0.14
Sequence = TAGATCCA; result = -0.158

Set 3 — technique: RNA Bind-n-Seq; molecule type: RNA; matrix: in vitro; concentration: 365 nM; reference: no-protein control; direction: higher = stronger binding; quantity: RBNS enrichment (R)
Target: RNA binding protein fox-1 homolog 2, RRM domain, GST-SBP tag (RBFOX2, Homo sapiens, UniProt O43251-10, residues 100-194)
Setting: natural RNA segment, single round, ends assumed
All sequences stand within: GGGAGUUCUACAGUCCGACGAUC … UGGAAUUCUCGGGUGCCAA
Residues (chain): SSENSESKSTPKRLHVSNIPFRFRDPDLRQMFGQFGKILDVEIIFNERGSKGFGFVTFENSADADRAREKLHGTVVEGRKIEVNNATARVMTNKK
Sequence = CUGUGAUUAAAAUCUUUAAGCAUUUGUUCCUGCCAAGGUAGUUUUCUUGCAUUUUGCUCUCCAUUCAGCAUGUGUGUGGGUGUGGAUGUUUAUAAACAAGACUAAGUCUG; result = 14.2
Sequence = UUGUCAUAAGUUAUGUUUCAGAUUUUUGAAUUUAUUUAUAUGUGUUAUAAUGAAUGCUUCUAUUUAAAAGGGAAAUAUUUCUACAUGUGCAUAUAGUUUUCCAAGAGUGU; result = 0.634
Sequence = AUAGAUAUAAAGUAAAAUUAUGUUAUUAAUUUGGUUUAGUCUGUAAUAUUACACAGUAAUGGUAAUUUAUAAAGGAGUGUAUAGUAGUAUACUGACUGCUAAGUGUACUA; result = 0.766
Sequence = GCGUGCUGGGGCACCCUCCUGGCCAGGUGGUACUUUGGGGACUUGGGUGUUUGCAUCAUAAUGUCAUCUUGGGAAACAGAAAAGAAGGUGGGCCAACCCUCAUGUCCCCC; result = 1.03
Sequence = UGUGGUGCUUACACACACCCAGUUGUCUCCACAGCUCUGAUACCUUUGCCUUCUGUUCUCCUCUCUAGCAUAAGACUUUGGCUUCUGCCUUAAGGUUUUCCUAAGGAAUU; result = 0.372
Sequence = CUGGAAGAAGUUGACAUCUAUGAGAAACAAUCCAAAGAAGAAACGGAUUCUGUAGUGCUGAUAGAAAACCUGAAGAAAGCAGCUCCUUGAUGGGGAGAAGUGAUUUCUUU; result = 0.271
Sequence = UCUUUGGGCCUCAGUUUUAUCAUUUAUACAAGGAGGGCUUUUCUAGCUGUAACAAUCUGUGAGGAUUGAGAGGAUAGGCUGGUGCUUUGAAGAAAGGCCUUGUAAGUGAC; result = 0.561
Sequence = GCCUAGGAAGUACAGAGCAUCCUGCCUGUGCCUUGGAGCCUGUGCACUGCUUUUGUAUGUGAUCUUGCAACAAACUCAGAAAUGGCUCCUUCCCAGCCCUACUGAAAAGC; result = 0.317
Sequence = ACCCUUAAUGGUGACAGACUCCUGGGCCUGCCACCUUGGACUUCCCUUAGGCUCACAGUUCAGAUCUGCAUGCAUUGCUUGCAUUGUUCUGGUAUCUGAAUGUUGAUUCC; result = 1.89
Sequence = UGUGCAAUACGAAUUAUGCAAUCACAAUACAUUUGUAGCUCCCGAGUGUCCUAAAGGGAGUGCACUUCUUUGAAGCUGGUGUGUUAAUACUAUGUAAUAAAUGGUUAACU; result = 0.545
Sequence = CGUGGCAGACAGCAGGUGCCUGGCGGUGACCCACGGGGCUCCUGGCUUGCAGCUGGUGAUGGUCAAGAACUGACUACAAAACAGGAAUGGAUAGACUCUAUUUCCUUCCA; result = 0.271
Sequence = UGCUACGCGUCAAACGCCUGGAGAACCCCUCGCCCCAGGCGCCGGCACGCCGCCUCCUGCCUCCCUGAGCGCUGCUGCAUCCUGCACGCCCUGGAACCCAGGAGCGCCCC; result = 1.67

Set 4 — technique: universal PBM; molecule type: double-stranded DNA, one strand shown; matrix: in vitro; concentration: 600 nM; direction: higher = stronger binding; quantity: E-score
Target: Sal-like protein 4, full length isoform A (SALL4, Homo sapiens, UniProt Q9UJQ4, residues 1-1053)
Sequence of UniProt Q9UJQ4 (whole entry, looked up): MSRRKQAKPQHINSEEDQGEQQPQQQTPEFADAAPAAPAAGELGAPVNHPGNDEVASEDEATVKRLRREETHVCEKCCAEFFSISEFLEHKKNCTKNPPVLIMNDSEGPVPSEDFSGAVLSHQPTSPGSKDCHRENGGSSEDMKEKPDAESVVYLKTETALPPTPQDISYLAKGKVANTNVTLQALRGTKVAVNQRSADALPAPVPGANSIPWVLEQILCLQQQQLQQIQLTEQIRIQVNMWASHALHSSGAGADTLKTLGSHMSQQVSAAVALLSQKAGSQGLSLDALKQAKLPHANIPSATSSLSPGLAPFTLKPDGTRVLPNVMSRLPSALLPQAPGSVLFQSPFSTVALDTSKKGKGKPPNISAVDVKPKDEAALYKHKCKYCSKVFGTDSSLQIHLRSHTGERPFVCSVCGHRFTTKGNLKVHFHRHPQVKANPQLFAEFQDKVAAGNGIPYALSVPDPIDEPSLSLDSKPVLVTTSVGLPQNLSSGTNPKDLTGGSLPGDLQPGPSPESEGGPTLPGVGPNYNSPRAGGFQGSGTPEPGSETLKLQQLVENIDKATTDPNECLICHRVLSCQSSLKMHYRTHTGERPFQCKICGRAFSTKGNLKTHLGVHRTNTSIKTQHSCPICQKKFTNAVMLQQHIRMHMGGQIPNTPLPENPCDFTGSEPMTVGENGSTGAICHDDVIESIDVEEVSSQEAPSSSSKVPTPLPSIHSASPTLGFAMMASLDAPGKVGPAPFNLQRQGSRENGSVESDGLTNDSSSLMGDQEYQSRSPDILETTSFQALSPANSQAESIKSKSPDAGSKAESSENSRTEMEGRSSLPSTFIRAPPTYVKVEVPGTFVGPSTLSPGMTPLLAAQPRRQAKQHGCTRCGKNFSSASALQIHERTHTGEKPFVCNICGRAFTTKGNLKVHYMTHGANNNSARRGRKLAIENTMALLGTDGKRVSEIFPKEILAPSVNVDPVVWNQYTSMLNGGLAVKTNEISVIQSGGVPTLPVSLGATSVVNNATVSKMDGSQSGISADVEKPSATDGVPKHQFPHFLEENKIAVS
Setting: 8-mer, flanks averaged, mean of replicates
Sequence = GCCATCAA; result = -0.0416
Sequence = CTCGTTGC; result = 0.0211
Sequence = ATAATGAC; result = 0.129
Sequence = GTGCTTGA; result = 0.111
Sequence = CAACTCTA; result = 0.00398
Sequence = CTGGTGTA; result = -0.158
Sequence = CATCCGAA; result = 0.00905
Sequence = CTCCTGTC; result = -0.0332
Sequence = AGATGTGG; result = 0.17
Sequence = CTTGCAAA; result = 0.176
Sequence = ACTCATGC; result = -0.00422
Sequence = CAGCATGC; result = -0.188
Sequence = CATCTAAA; result = 0.14
Sequence = CCGAAACA; result = 0.145
Sequence = CAATTCAC; result = 0.242
Sequence = GAATGGGA; result = -0.0648
Sequence = GCTGAGCA; result = -0.128
Sequence = AGCTATAG; result = 0.129
Sequence = CTACGGAC; result = -0.219
Sequence = AGGAAGTC; result = -0.0235
Sequence = TCAAGACA; result = 0.02
Sequence = TACCATAA; result = 0.33
Sequence = TACTGGAA; result = 0.13

Set 5 — technique: RNA Bind-n-Seq; molecule type: RNA; matrix: in vitro; concentration: 200 nM; setting: whole 134-nt RNA, ends assumed; added: 150 mM LiCl; reference: input library; direction: higher = stronger binding; quantity: log2 enrichment; each molecule: 7-deaza-guanosine replaces G
Target: Ras GTPase-activating protein-binding protein 1, full length (G3BP1, Homo sapiens, UniProt Q13283)
Sequence of UniProt Q13283 (whole entry, looked up): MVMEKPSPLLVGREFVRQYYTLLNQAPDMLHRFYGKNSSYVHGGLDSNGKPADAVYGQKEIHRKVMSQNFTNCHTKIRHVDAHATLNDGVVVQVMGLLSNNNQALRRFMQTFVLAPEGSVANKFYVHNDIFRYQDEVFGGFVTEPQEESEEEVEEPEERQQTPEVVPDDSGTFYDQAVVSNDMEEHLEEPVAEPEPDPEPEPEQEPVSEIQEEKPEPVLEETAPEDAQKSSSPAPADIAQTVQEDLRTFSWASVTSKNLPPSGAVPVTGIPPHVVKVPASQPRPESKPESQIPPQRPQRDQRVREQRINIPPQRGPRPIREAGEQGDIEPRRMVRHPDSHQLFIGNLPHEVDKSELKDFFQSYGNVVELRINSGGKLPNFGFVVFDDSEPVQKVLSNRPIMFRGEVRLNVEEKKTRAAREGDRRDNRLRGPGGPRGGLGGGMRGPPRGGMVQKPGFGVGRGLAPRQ
All sequences stand within: GGGAGUUCUACAGUCCGACGAUC … UGGAAUUCUCGGGUGUCAAGG
Sequence = UCCUGUGCUACACAUCGUAUGUACCGAAUCGGGGAAAGGGGAAAGGGGAAAAAAAGGGGAAAGUAUUAUGUUACGCCGUUCGGAUCUGCA; result = 0.656
Sequence = UGGCCCUGGUGGCAUGCGGGGAGGAAGAGGUGGCCUCAUGGAUCGUGCUGGUCCCGGUGGAAUGUUCAGAGGUGGCCGUGGUGGAGACAG; result = 0.143
Sequence = CCUGUGCUACACAUCGUAUGUACCGAAUCGGGGUUUGGGGAAAAAAAGGGGAAAAAGGGGAAAGUAUUAUGUUACGCCGUUCGGAUCUGC; result = 0.311
Sequence = CACAGACAACAAGCACCCACACAGACACAGAGGGAAGGGGUUGGGAUGGGGACAGGGUGCACAGCAGGGCGGGGUAGGACCCCAGCCCCU; result = 0.235
Sequence = UCAAGUCCUGUGCUACACAUCGUAUGUACCGAAUCGGGGUUGGGUUGGGUUGGGGAAAGUAUUAUGUUACGCCGUUCGGAUCUGCACUUC; result = 0.633
Sequence = AAGUCCUGUGCUACACAUCGUAUGUACCGAAUCGGGGUUUUUGGGGUGGGGUGGGGAAAGUAUUAUGUUACGCCGUUCGGAUCUGCACUU; result = -0.0424
Sequence = AAGUCCUGUGCUACACAUCGUAUGUACCGAAUCGGGUUUGGGGUUUGGGGUUUGGGGAAAGUAUUAUGUUACGCCGUUCGGAUCUGCACU; result = -0.638
Sequence = UCCUCAAGUCCUGUGCUACACAUCGUAUGUACCGAAUCGGUGGGGUGGGUGGAAAGUAUUAUGUUACGCCGUUCGGAUCUGCACUUCCAG; result = 0.474
Sequence = UAACUUUACAGGAGGAUCUGAUGGAUAUGGCAGUGGACGUGGAUUUGGGGAUGGCUAUAAUGGGUAUGGAGGAGGACCUGGAGGUGGCAA; result = -0.0125
Sequence = AAGUCCUGUGCUACACAUCGUAUGUACCGAAUCGGGAAAAGGAAAAGGAAAAGGGGAAAGUAUUAUGUUACGCCGUUCGGAUCUGCACUU; result = 0.0456
Sequence = UGUGAAAGAAAACCGAAGUUUUAAAUGACUUCUCAUGGUUAUUUUUUUUCCUUUCUCUUGCAGGACAUUGGGGACACAUUGAGCAGGUAU; result = -1.05

Excerpt of the above (set 1):
Sequence = FQGDVDEDLICPICSGVLEEPVQAPHCEHAFCNACITQWFSQQQTCPVDRSVVTVAHLRP (RNF41 RING domain (UniProt Q9H4P4)); result = 0
Sequence = B5 (TRIML1 RING domain); result = 0
Sequence = B4 (RNF208 RING domain); result = 0
Sequence = MPIRALCTICSDFFDHSRDVAAIHCGHTFHLQCLIQWFETAPSRTCPQCRIQVGKRTIIN (TRAIP RING domain (UniProt Q9BWF2)); result = 0
Sequence = B2 (MKRN1 RING domain); result = 0
Sequence = ASLPTSEEDLCPICYAHPISAVFQPCGHKSCKACINQHLMNNKDCFFCKTTIVSVEDWE (RNF123 RING domain (UniProt Q5XPI4)); result = 0
Sequence = B8 (RNF38 RING domain); result = 0
Sequence = B7 (TRIM24 RING domain); result = 0
Sequence = DHGAVGQEMCCPICCSEYVKGEVATELPCHHYFHKPCVSIWLQKSGTCPVCRCMFPPPL (PJA1 RING domain (UniProt Q8NG27)); result = 0
Sequence = QVDKAVFHMQSVKCLKCQEQKRAVLPCQHAALCELCAEGSECPICQPGRAHTLQS (UNK RING domain (UniProt Q9C0B0)); result = 0
Sequence = PAELEVQASECVVCLEREAQMIFLNCGHVCCCQQCCQPLRTCPLCRQDIAQRLRIY (LRSAM1 RING domain (UniProt Q6UWE0)); result = 0
Sequence = B6 (TRIM4 RING domain); result = 0
